Assay results from different studies.
Lines come from different studies, so protocols differ. ± marks the error that the study gave.
Lysophospholipase-like protein 1: Lysophospholipase-like protein 1 (Mus musculus, UniProt Q3UFF7)
GLP1R: Glucagon-like peptide 1 receptor (GLP1R, Homo sapiens, UniProt P43220)
LYPLAL1: Lysophospholipase-like protein 1 (LYPLAL1, Homo sapiens, UniProt Q5VWZ2)
KCNT1: Potassium channel subfamily T member 1 (KCNT1, Homo sapiens, UniProt Q5JUK3)
FPR1: fMet-Leu-Phe receptor (FPR1, Homo sapiens, UniProt P21462)
GRM4: Metabotropic glutamate receptor 4 (GRM4, Homo sapiens, UniProt Q14833)
LDHA: L-lactate dehydrogenase A chain (LDHA, Homo sapiens, UniProt P00338)

Chains of the proteins cited; added tags and fusions are not shown. Lines headed by an entry give the natural chain unless they say otherwise; changes in a name come on top. Residues count along the entry.
UniProt Q3UFF7, whole entry: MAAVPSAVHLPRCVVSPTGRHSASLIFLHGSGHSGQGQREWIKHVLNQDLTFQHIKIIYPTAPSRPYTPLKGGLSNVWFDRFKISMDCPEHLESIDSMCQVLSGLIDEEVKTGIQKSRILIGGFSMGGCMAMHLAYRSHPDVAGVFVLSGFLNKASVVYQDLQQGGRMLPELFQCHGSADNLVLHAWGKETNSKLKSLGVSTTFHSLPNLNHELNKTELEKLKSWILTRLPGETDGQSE
UniProt P43220, whole entry, looked up: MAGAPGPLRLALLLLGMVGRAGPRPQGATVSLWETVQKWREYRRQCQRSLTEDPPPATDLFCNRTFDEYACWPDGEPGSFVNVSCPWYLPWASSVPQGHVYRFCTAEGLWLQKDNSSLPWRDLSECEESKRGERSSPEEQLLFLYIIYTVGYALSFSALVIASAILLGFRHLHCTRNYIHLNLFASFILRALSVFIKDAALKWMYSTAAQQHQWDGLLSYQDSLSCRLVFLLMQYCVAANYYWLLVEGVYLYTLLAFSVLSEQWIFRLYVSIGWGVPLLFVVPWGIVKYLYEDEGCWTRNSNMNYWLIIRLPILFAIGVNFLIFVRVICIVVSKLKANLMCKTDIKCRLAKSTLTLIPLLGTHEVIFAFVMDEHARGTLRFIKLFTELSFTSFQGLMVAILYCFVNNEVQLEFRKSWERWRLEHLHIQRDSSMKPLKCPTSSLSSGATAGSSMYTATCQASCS
UniProt Q5VWZ2, whole entry: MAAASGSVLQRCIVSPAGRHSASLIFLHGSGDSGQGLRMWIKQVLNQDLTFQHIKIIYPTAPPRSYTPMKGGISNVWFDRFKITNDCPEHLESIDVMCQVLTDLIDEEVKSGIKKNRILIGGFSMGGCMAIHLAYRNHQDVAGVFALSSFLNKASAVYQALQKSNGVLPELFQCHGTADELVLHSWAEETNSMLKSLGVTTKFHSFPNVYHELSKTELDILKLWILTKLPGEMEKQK
UniProt Q14833, 33-912 limits assumed: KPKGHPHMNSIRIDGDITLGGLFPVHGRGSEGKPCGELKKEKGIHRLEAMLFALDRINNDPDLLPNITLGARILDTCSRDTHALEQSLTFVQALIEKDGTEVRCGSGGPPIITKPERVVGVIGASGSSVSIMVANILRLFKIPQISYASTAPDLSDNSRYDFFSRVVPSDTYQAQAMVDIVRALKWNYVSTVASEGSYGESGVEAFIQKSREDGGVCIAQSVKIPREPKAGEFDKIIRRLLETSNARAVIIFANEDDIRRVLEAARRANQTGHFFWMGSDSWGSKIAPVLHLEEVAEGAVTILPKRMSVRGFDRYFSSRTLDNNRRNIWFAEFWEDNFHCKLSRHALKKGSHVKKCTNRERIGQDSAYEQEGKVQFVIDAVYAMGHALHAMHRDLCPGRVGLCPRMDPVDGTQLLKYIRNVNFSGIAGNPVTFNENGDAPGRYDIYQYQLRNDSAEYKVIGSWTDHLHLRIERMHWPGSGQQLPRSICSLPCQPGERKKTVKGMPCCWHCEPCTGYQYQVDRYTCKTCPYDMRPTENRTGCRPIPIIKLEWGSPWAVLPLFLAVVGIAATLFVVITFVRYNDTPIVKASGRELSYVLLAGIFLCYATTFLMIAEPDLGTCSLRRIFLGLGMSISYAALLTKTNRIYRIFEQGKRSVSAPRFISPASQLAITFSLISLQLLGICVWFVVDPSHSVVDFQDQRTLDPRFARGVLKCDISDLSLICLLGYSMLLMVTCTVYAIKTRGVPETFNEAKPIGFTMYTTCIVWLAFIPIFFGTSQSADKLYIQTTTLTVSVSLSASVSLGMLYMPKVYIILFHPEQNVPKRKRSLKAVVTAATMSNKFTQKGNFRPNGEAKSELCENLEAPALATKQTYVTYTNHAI
UniProt P30518, whole entry: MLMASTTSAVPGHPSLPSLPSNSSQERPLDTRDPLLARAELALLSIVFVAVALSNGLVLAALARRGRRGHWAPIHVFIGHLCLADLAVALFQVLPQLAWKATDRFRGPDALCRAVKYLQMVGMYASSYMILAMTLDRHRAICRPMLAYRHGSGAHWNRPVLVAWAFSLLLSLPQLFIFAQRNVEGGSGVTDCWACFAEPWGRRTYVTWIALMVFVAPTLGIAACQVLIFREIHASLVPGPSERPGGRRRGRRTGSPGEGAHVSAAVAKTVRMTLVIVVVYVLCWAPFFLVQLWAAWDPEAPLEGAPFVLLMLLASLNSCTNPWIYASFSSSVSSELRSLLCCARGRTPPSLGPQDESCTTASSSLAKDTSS
UniProt Q16281, whole entry: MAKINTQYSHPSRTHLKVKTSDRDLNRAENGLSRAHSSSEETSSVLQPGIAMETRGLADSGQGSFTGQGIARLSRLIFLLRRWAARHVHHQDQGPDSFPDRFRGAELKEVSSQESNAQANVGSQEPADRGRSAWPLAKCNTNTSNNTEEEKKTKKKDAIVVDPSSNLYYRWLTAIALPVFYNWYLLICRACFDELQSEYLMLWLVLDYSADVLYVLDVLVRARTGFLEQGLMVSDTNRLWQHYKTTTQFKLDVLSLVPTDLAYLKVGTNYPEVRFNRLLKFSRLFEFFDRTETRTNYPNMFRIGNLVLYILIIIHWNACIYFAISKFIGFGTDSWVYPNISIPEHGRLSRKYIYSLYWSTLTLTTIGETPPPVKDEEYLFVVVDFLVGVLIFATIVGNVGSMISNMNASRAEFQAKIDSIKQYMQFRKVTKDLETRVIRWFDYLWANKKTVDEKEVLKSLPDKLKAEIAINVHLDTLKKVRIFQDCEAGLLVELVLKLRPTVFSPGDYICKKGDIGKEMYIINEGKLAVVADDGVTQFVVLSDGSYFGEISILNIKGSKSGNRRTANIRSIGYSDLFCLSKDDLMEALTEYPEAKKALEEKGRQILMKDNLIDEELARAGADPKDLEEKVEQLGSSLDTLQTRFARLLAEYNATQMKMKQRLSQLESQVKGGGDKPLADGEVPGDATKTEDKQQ
UniProt P00352, whole entry: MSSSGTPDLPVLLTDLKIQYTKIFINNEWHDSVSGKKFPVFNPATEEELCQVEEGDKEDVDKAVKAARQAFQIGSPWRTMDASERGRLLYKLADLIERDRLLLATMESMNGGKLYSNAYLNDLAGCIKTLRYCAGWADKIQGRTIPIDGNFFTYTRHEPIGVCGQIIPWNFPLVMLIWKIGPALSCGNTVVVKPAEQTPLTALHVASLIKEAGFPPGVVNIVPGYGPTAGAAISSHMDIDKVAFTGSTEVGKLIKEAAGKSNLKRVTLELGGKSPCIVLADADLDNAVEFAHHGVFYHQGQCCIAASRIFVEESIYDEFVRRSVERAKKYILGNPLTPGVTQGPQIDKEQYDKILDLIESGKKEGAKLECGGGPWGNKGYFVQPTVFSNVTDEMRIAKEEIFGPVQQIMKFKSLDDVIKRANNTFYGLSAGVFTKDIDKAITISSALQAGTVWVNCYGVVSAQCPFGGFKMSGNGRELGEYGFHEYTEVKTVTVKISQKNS
UniProt P21761, whole entry: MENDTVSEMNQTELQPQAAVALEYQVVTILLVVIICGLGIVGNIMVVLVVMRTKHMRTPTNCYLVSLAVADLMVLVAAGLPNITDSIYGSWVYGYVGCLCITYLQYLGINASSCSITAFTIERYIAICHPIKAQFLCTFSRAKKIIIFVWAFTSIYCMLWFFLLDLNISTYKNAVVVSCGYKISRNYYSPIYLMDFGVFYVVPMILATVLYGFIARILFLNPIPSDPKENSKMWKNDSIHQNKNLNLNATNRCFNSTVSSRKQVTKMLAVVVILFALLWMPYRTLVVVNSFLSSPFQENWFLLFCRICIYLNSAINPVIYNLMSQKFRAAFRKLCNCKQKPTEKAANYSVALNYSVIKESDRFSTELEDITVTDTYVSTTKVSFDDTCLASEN
UniProt Q01959, whole entry: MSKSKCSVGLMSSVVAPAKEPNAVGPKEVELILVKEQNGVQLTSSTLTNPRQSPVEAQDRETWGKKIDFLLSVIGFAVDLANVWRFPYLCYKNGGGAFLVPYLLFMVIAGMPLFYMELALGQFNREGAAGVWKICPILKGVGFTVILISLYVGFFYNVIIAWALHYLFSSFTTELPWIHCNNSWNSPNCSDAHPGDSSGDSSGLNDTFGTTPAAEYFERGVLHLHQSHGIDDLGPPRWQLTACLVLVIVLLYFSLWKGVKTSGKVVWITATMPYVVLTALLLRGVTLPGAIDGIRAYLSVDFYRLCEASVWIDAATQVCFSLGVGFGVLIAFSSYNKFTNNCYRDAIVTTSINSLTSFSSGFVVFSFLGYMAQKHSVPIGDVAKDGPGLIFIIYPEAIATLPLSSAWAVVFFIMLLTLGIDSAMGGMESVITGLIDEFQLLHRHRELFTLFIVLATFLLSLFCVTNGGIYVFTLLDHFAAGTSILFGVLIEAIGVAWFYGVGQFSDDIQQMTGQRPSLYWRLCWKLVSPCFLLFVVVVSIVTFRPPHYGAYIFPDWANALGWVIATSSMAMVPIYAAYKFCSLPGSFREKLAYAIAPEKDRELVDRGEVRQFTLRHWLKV
UniProt P54753, 34-998 limits assumed: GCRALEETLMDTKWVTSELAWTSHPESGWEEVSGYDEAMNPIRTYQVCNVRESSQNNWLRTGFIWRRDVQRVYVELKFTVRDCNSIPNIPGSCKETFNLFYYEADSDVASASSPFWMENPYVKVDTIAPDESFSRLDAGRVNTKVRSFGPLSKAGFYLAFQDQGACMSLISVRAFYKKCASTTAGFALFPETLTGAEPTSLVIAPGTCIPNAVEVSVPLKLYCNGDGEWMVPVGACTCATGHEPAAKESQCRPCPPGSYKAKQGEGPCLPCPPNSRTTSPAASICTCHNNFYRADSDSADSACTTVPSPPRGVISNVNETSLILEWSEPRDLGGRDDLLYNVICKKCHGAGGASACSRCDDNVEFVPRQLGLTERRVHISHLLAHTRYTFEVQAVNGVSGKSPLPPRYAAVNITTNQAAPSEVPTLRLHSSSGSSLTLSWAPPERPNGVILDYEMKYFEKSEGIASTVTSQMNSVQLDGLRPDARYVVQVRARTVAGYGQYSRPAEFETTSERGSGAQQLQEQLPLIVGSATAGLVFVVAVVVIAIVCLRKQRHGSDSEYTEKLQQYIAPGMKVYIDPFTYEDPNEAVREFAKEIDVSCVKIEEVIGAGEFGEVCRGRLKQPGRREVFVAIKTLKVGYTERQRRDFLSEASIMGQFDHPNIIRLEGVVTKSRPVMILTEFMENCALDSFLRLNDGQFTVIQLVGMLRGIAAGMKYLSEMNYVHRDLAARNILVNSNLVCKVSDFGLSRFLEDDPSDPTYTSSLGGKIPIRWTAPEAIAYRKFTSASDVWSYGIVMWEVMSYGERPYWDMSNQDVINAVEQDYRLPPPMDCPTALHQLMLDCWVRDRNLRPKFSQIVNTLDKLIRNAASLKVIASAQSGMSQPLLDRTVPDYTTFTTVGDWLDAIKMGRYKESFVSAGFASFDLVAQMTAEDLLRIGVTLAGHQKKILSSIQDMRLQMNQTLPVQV
UniProt P41594, 21-1212 limits assumed: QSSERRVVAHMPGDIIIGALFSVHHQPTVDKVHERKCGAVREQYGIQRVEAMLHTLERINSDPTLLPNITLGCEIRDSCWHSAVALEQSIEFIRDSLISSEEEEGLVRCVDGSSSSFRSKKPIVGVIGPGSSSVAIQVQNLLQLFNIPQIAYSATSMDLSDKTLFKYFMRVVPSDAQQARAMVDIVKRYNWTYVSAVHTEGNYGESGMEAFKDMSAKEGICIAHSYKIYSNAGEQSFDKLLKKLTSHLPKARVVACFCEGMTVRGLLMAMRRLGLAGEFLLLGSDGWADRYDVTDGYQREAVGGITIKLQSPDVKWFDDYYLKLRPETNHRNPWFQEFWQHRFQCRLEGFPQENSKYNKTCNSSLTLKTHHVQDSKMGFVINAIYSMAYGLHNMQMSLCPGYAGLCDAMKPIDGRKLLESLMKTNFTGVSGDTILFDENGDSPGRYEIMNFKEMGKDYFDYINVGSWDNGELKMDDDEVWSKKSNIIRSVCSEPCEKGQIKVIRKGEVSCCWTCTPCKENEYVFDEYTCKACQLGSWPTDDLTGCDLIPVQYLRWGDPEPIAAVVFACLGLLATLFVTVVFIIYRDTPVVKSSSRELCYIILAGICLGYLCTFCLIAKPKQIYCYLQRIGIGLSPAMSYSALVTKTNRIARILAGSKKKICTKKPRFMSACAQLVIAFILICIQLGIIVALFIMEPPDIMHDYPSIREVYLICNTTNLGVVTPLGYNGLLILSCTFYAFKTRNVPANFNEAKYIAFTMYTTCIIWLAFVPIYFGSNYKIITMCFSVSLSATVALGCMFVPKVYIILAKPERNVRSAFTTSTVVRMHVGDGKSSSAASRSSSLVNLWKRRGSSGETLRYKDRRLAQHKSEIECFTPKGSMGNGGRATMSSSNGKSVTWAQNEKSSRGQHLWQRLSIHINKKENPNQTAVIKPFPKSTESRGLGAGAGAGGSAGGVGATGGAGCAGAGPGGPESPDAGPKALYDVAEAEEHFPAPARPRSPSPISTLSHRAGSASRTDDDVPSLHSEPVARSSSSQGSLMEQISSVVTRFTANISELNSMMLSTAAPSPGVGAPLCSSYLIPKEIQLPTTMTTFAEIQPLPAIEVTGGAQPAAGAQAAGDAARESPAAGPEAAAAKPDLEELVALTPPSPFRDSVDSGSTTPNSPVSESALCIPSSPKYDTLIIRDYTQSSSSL

Compound	target	test	test system	conditions	EC50 [nM]
Nc1nc(SCc2ccc(Cl)cc2)nn1S(=O)(=O)c1ccc2c(c1)CCC2	Lysophospholipase-like protein 1	enzyme activity, activator, gel-based ABPP, FP-rhodamine	purified protein	–	790
NCCCCNC(=O)[C@H](Cc1ccc(Cl)cc1)NC(=O)N1CCc2ccccc2C1	Melanocyte-stimulating hormone receptor (Mc1r, Mus musculus, UniProt Q01727)	reporter gene, agonist, β-galactosidase reporter	HEK293 stably expressing Mc1r	–	> 100000
Cc1[nH]c2cc(Cl)cc(Cl)c2c1CCn1cc(C2(O)COC2)nn1	GLP1R	cAMP accumulation, positive allosteric modulator, HTRF	CHO-K1 expressing GLP1R	purified compound, together with: GLP-1(9-36) at EC20	668 ± 64
Nc1nc(SCc2ccc(Cl)c(Cl)c2)nn1S(=O)(=O)c1ccc2c(c1)CCO2	LYPLAL1	enzyme activity, activator, gel-based ABPP, FP-rhodamine	purified protein	–	450
C[N+]1=C(C=CC=CC=C2N(CCCCCC(=O)NCc3cn(CCOc4ccc(C(c5ccc(Cl)cc5)N5CCN(C(=O)OC(C(F)(F)F)C(F)(F)F)CC5)cc4)nn3)c3ccccc3C2(C)C)C(C)(C)c2ccccc21 (centres unmarked)	Monoglyceride lipase (MGLL, Homo sapiens, UniProt Q99685)	target engagement, gel-based ABPP	U-87 MG	1 h, 37 °C	~10
COc1ccccc1-c1cc(C(F)(F)F)nc(S(C)(=O)=O)n1	Vasopressin V2 receptor (AVPR2, Homo sapiens, UniProt P30518)	cAMP accumulation, positive allosteric modulator	CHO-K1 overexpressing target	together with: vasopressin at EC20	18000 ± 13000
CCCCCCCC(=O)OCC(COP(=O)(O)OC1C(O)C(O)C(OP(=O)(O)O)C(OP(=O)(O)O)C1O)OC(=O)CCCCCCC (centres unmarked)	CNGA3/CNGB3 (Homo sapiens, UniProt Q16281+Q9NQW8)	increase in cGMP K1/2, inside-out patch clamp	–	CNGA3/CNGB3 heteromer	3440
CCCn1c(NCc2cccc(OC)c2O)nc2ccccc21	Aldehyde dehydrogenase 1A1 (ALDH1A1, Homo sapiens, UniProt P00352)	enzyme activity, inhibitor, NADH absorbance 340 nm	–	pH 7.5, 25 °C, 200 µM NAD+, together with: 100 µM propionaldehyde	750 ± 74
NCC(c1ccc(O)cc1)c1ccc(Oc2ccccc2)cc1 (centres unmarked)	Trace amine-associated receptor 1 (Taar1, Mus musculus, UniProt Q923Y8, Y287N)	cAMP, agonist	–	mouse receptor mutant	176 ± 32
Nc1nc(NCCc2ccc(Cl)cc2)nn1S(=O)(=O)C1CCCCC1	Lysophospholipase-like protein 1	enzyme activity, activator, gel-based ABPP, FP-rhodamine	purified protein	–	> 20000
Cc1ccc2c(c1)ncn2CC1CCN(S(=O)(=O)c2cccc(C(F)(F)F)c2)CC1	KCNT1	thallium flux, activator	HEK293 expressing KCNT1	–	2400
COc1ccc(C2(CNC(=O)[C@H](Cc3c[nH]c4ccccc34)NC(=O)Nc3ccc([N+](=O)[O-])cc3)CCCCC2)cc1	FPR1	Ca2+ mobilization, agonist	HL-60 transfected with FPR1	–	14800 ± 4600
COc1ccc(NC(=O)CN2CCCN(S(=O)(=O)Cc3ccc(Cl)cc3Cl)CC2)c(OC)c1	GRM4	calcium mobilization, positive allosteric modulator	CHO cells with Gqi5	together with: glutamate EC20	2800 ± 10
C/C=C/c1cc(-c2nn(-c3nc(C(=O)O)cs3)c(CC3CC3)c2Cc2ccc(S(N)(=O)=O)c(F)c2)ccc1F	LDHA	thermal stabilisation, CETSA	HEK293	3.5 min, 71 °C	20
Nc1nc(NCCc2ccc(Cl)cc2)nn1S(=O)(=O)c1cccc2ccccc12	Lysophospholipase-like protein 1	enzyme activity, activator, gel-based ABPP, FP-rhodamine	purified protein	–	2100
Cc1nc(-c2ccc(OCC(C)C)c(C#N)c2)sc1C(N)=O	Metabotropic glutamate receptor 2 (Grm2, Rattus norvegicus, UniProt P31421)	thallium flux, positive allosteric modulator	HEK293 GIRK	together with: glutamate EC20	1200
COc1ccc(NC(=O)CN2CCCN(S(=O)(=O)c3ccc(C(C)=O)cc3)CC2)c(OC)c1	GRM4	calcium mobilization, positive allosteric modulator	CHO cells with Gqi5	together with: glutamate EC20	> 10000
O=C(Nc1ccc(F)c(F)c1)C12CC1/C(=N\O)c1ccccc1O2 (centres unmarked)	GRM4	calcium mobilization, positive allosteric modulator	CHO hmGluR4/Gqi5	together with: glutamate EC20	> 5000
Cn1cnc(C[C@H](NC(=O)[C@@H]2CCC(=O)N2)C(=O)N2CCC[C@H]2C(N)=O)c1 [isotope labelled]	Thyrotropin-releasing hormone receptor (Mus musculus, UniProt P21761)	reporter gene, agonist, CREB luciferase reporter	HEK293 cells	6 h, 37 °C	2.1
COc1ccc(NC(=O)CN2CCCN(S(=O)(=O)c3ccc(C(C)(C)C)cc3)CC2)c(OC)c1	GRM4	calcium mobilization, positive allosteric modulator	CHO cells with Gqi5	together with: glutamate EC20	> 10000
CCCn1c(=O)c(-c2cccc(NC(C)=O)c2)nc2ccccc21	Cystic fibrosis transmembrane conductance regulator (CFTR, Homo sapiens, UniProt P13569)	iodide influx, activator, YFP halide sensor	FRT	approximate, together with: forskolin 125 nM	> 25000
Cc1[nH]c2cc(Cl)cc(Cl)c2c1CCn1cc(CCCC#N)nn1	GLP1R	cAMP accumulation, positive allosteric modulator, HTRF	CHO-K1 expressing GLP1R	purified compound, together with: GLP-1(9-36) at EC20	627 ± 233
CCc1ccc(NS(=O)(=O)c2cn(Cc3ccccn3)c3ncccc23)cc1	Cystic fibrosis transmembrane conductance regulator, W1282X (CFTR, Homo sapiens, UniProt P13569)	iodide influx, co-potentiator, YFP fluorescence	FRT expressing CFTR	together with: ivacaftor	600
CNc1nc(C#Cc2ccc(Cl)s2)nc2c1ncn2[C@H]1[C@H](O)[C@H](O)[C@]2(C#N)C[C@H]12	Sodium-dependent dopamine transporter (SLC6A3, Homo sapiens, UniProt Q01959)	–	–	–	2200

Compound	target	test	test system	conditions	EC50 [nM]
Cc1[nH]c2cc(Cl)cc(Cl)c2c1CCn1cc(CCCCO)nn1	GLP1R	cAMP accumulation, positive allosteric modulator, HTRF	CHO-K1 expressing GLP1R	purified compound, together with: GLP-1(9-36) at EC20	714 ± 152
COc1ccc(S(=O)(=O)n2nc(SCc3ccc(Cl)cc3)nc2N)cn1	LYPLAL1	enzyme activity, activator, gel-based ABPP, FP-rhodamine	purified protein	–	710
O=C(CCl)Nc1ccc2c(Nc3ccccc3)ncnc2c1	Ephrin type-B receptor 3 (EPHB3, Homo sapiens, UniProt P54753)	EPHB3 autophosphorylation, inhibitor, immunoblot	HEK293, transfected	together with: ephrin-B2	170
CCOc1ccc2nc(SCC(=O)Nc3ccc(Cl)cc3)[nH]c2c1	FPR1	calcium mobilization, agonist	HL-60 transfected with FPR1	–	8100
CC(C)(Cn1cc(-c2ccc(CO)cc2)nn1)c1c[nH]c2ccccc12	GLP1R	cAMP accumulation, positive allosteric modulator, HTRF	CHO-K1 expressing GLP1R	purified compound, together with: GLP-1(9-36) at EC20	795 ± 250
NCCCCNC(=O)[C@H](Cc1ccc(I)cc1)NC(=O)N1CCc2ccccc2C1	Melanocortin receptor 4 (Mus musculus, UniProt P56450)	reporter gene, agonist, β-galactosidase reporter	HEK293 stably expressing Melanocortin receptor 4	–	17000 ± 4300
Cc1cnc(C#Cc2cccc(-c3nn(-c4nc(C(=O)O)cs4)c(CC4CC4)c3Cc3ccc(S(N)(=O)=O)c(F)c3)c2)o1	LDHA	thermal stabilisation, CETSA	HEK293	3.5 min, 71 °C	40
CC(C)Oc1ccccc1-n1c(CN2CCN(C(=O)COc3ccc(Cl)cc3)CC2)nc2c(Cl)cccc2c1=O	Slc7a11 (Rattus norvegicus, UniProt A0A8I6AB70)	cystine uptake, inhibitor, item: [14C]cystine	rat primary microglia	15 min, together with: LPS	1750 ± 390
Cc1ccc2c(c1)C(n1cc(CNc3ccc(C(=O)NCCC(=O)O)cc3)nn1)CCC2 (centres unmarked)	GLP1R	cAMP accumulation, positive allosteric modulator, HTRF	CHO-K1 expressing GLP1R	together with: GLP-1 at EC20	5180
CCOC(=O)C1=C(C)Nc2nc3c(c(N)c2C1c1ccccc1Cl)CC(C)(C)CC3 (centres unmarked)	Serine/threonine-protein phosphatase 2A catalytic subunit alpha isoform (PPP2CA, Homo sapiens, UniProt P67775)	phosphatase activity, activator	HEK293 expressing tau	–	414
COc1ccc(NC(=O)CN2CCCN(S(=O)(=O)Cc3ccccc3)CC2)c(OC)c1	GRM4	calcium mobilization, positive allosteric modulator	CHO cells with Gqi5	together with: glutamate EC20	> 10000
COc1cccc(Cc2cc(C)nn(C(C(=O)Nc3ccc(Br)cc3)C(C)C)c2=O)c1 (racemic)	N-formyl peptide receptor 2 (FPR2, Homo sapiens, UniProt P25090)	calcium mobilization, agonist	HL-60 transfected with FPR2	–	6500
NCCCCNC(=O)[C@H](Cc1ccc2ccccc2c1)NC(=O)N1CCc2ccccc2C1	Melanocortin receptor 3 (Mus musculus, UniProt P33033)	reporter gene, agonist, β-galactosidase reporter	HEK293 stably expressing Melanocortin receptor 3	–	> 100000
CCCC(O)c1cn(CCc2c(C)[nH]c3cc(Cl)cc(Cl)c23)nn1 (centres unmarked)	GLP1R	cAMP accumulation, positive allosteric modulator, HTRF	CHO-K1 expressing GLP1R	purified compound, together with: GLP-1(9-36) at EC20	536 ± 132
Cc1c(=O)n(C)c(Nc2ccc(I)cc2F)c2c(=O)n(C3CC3)c(=O)n(-c3cccc(NC(=O)CCOCCOCCNC(=O)CCC4=[N+]5C(=Cc6ccc(-c7ccc[nH]7)n6[B-]5(F)F)C=C4)c3)c12	Dual specificity mitogen-activated protein kinase kinase 1 (MAP2K1, Homo sapiens, UniProt Q02750, S218A/S222A)	binding, NanoBRET	HEK-293T	MEK1 S218A/S222A NanoLuc fusion	22 ± 2
CC(C)(Cn1cc(-c2ccc(N)nc2)nn1)c1c[nH]c2ccccc12	GLP1R	cAMP accumulation, positive allosteric modulator, HTRF	CHO-K1 expressing GLP1R	purified compound, together with: GLP-1(9-36) at EC20	496 ± 149
CSc1cc(NC(=O)c2ccccn2)ccc1Cl	Metabotropic glutamate receptor 5 (GRM5, Homo sapiens, UniProt P41594)	agonist	–	–	> 30000
NCC(c1ccc(O)cc1)c1ccc(O)cc1	Trace amine-associated receptor 1 (Taar1, Mus musculus, UniProt Q923Y8)	cAMP production, agonist	HEK293	–	> 10000
Cc1ccc2ncn(CC3CCN(S(=O)(=O)c4cccc(C(F)(F)F)c4)CC3)c2c1	KCNT1	thallium flux, activator	HEK293 expressing KCNT1	–	1700
NCC(c1ccccc1)c1cccc(Oc2ccccc2)c1 (centres unmarked)	Trace amine-associated receptor 1 (Rattus norvegicus, UniProt Q923Y9, M268T/N287Y)	cAMP production, agonist	–	double mutant	> 10000
O=C(Nc1cccc(F)c1)C12CC1/C(=N\O)c1ccccc1O2 (centres unmarked)	GRM4	calcium mobilization, positive allosteric modulator	CHO hmGluR4/Gqi5	together with: glutamate EC20	> 5000
Nc1nc(SCc2ccc(Cl)cc2)nn1S(=O)(=O)c1ccoc1	Lysophospholipase-like protein 1	enzyme activity, activator, gel-based ABPP, FP-rhodamine	purified protein	–	> 20000
COC(=O)C1(C)C=C(C(=O)Nc2cccc(C(=O)Nc3ccc(Nc4nccc(-c5cccnc5)n4)c(C)c3)c2)C(=O)C1 (centres unmarked)	Mitogen-activated protein kinase 8 (MAPK8, Homo sapiens, UniProt P45983)	JNK1 binding, NanoBRET	HEK293 cells	2 h, together with: tracer K-5	9.4 ± 0.4

Some of these lines once more:
Compound	target	test	test system	conditions	EC50 [nM]
CCc1ccc(NS(=O)(=O)c2cn(Cc3ccccn3)c3ncccc23)cc1	Cystic fibrosis transmembrane conductance regulator, W1282X (CFTR, Homo sapiens, UniProt P13569)	iodide influx, co-potentiator, YFP fluorescence	FRT expressing CFTR	together with: ivacaftor	600
COc1cccc(Cc2cc(C)nn(C(C(=O)Nc3ccc(Br)cc3)C(C)C)c2=O)c1 (racemic)	N-formyl peptide receptor 2 (FPR2, Homo sapiens, UniProt P25090)	calcium mobilization, agonist	HL-60 transfected with FPR2	–	6500
CCCn1c(=O)c(-c2cccc(NC(C)=O)c2)nc2ccccc21	Cystic fibrosis transmembrane conductance regulator (CFTR, Homo sapiens, UniProt P13569)	iodide influx, activator, YFP halide sensor	FRT	approximate, together with: forskolin 125 nM	> 25000
Cc1nc(-c2ccc(OCC(C)C)c(C#N)c2)sc1C(N)=O	Metabotropic glutamate receptor 2 (Grm2, Rattus norvegicus, UniProt P31421)	thallium flux, positive allosteric modulator	HEK293 GIRK	together with: glutamate EC20	1200
Cc1[nH]c2cc(Cl)cc(Cl)c2c1CCn1cc(C2(O)COC2)nn1	GLP1R	cAMP accumulation, positive allosteric modulator, HTRF	CHO-K1 expressing GLP1R	purified compound, together with: GLP-1(9-36) at EC20	668 ± 64
Cc1cnc(C#Cc2cccc(-c3nn(-c4nc(C(=O)O)cs4)c(CC4CC4)c3Cc3ccc(S(N)(=O)=O)c(F)c3)c2)o1	LDHA	thermal stabilisation, CETSA	HEK293	3.5 min, 71 °C	40
CCCn1c(NCc2cccc(OC)c2O)nc2ccccc21	Aldehyde dehydrogenase 1A1 (ALDH1A1, Homo sapiens, UniProt P00352)	enzyme activity, inhibitor, NADH absorbance 340 nm	–	pH 7.5, 25 °C, 200 µM NAD+, together with: 100 µM propionaldehyde	750 ± 74
